Results gathered from unrelated publications.
“And” joins repeats or separate records; there may be more than shown. Numbers after ± are the reported error. Converted amounts (≈) assume the structure as drawn.

Compound	organism	test	system	conditions	how to read	quantity	result
CNc1nc(-c2ccccc2)nc2[nH]nc(Nc3ccc(F)cc3)c12	coxsackievirus B3	viral cytopathic effect	HeLa			IC50	3100 nM
CC1=CC(OC=C2C(=O)OC3c4ccccc4CC23)OC1=O (racemic)	Striga hermonthica	seed germination, stimulant				EC50	1.5 nM
FC(F)(F)c1cccc(CNc2nc(NC3CCN(Cc4ccccc4)CC3)c3nc[nH]c3n2)c1	Cryptococcus neoformans	RNA-seq, measured: CNAG_05329	wild type	48 µg/mL, 3 h	baseline: untreated wild type	log2 fold change	-0.217
COc1ccc(Nc2n[nH]c3nc(-c4ccccc4)nc(N)c23)cc1OC	coxsackievirus B3	viral cytopathic effect	HeLa			IC50	3590 nM
COc1cc(C)c(-c2ccc(O)c3c2C[C@@H](C)N[C@@H]3C)c2cccc(O)c12 (single isomer, unassigned)	Plasmodium falciparum	asexual parasite proliferation, SYBR Green I fluorescence	clinical isolate SB_05, Mozambique			IC50	107 ± 5.7 nM
Fc1ccc2c(c1)c1nc3ccc(Br)cc3c-1cn2Cc1cn(-c2ccccc2I)nn1	Giardia duodenalis trophozoites	UHPLC-Q-TOF-MS metabolomics, measured: 2-hexyldecanoic acid		IC50, 0.2142 h	baseline: 0.25% DMSO	fold change	2.1
CNCc1ccc2c(c1)C[C@H](CNC(=N)N)[C@H]2NC(=O)C(=O)Nc1ccc(Cl)c(F)c1	HIV-1	pseudovirus infection, Env pseudovirus neutralisation	TZM-bl, clade B transmitted/founder			IC80	2210 nM
COc1ccc(C(c2c[nH]c(=O)[nH]c2=O)c2c[nH]c(=O)[nH]c2=O)cc1	Human immunodeficiency virus 1	viral replication, inhibitor, ELISA		1 µg/mL		inhibition	5%
Nc1nc(-c2ccccc2)nc2[nH]nc(Nc3c(F)cc(F)cc3F)c12	rhinovirus B42	viral cytopathic effect	HeLa			IC50	790 nM
O=c1[nH]cc(C(c2cccc([N+](=O)[O-])c2)c2c[nH]c(=O)[nH]c2=O)c(=O)[nH]1	Human immunodeficiency virus 1	viral replication, inhibitor, ELISA		1 µg/mL		inhibition	42%
CN(Cc1ccc(C2(C(F)(F)F)CCC2)cc1)Cc1cccc2ccccc12	Trichophyton mentagrophytes	microbial growth, disc diffusion	ATCC18748	0.512 µg/mL, 72 h		inhibition zone	49.2 mm
COc1cccc2c(-c3ccc4c(c3O)[C@@H](C)N[C@H](C)C4)c(CO)cc(OC)c12	Plasmodium falciparum	parasite growth, SYBR Green	NF54	blood stage		IC50	15.6 nM
C=C(C)[C@H](O)COc1ccc(CCO)cc1	Zika virus	viral replication, CCK-8	Vero C1008	10 µM, 96 h		inhibition	0%
CCCCCCCCCC(=O)N[C@@H](Cc1c[nH]c2ccccc12)C(=O)N[C@H](CC(N)=O)C(=O)N[C@@H](CC(=O)O)C(=O)N[C@@H]1C(=O)NCC(=O)N[C@@H](CCCNC(=O)OC2/C=C/CCCCC2)C(=O)N[C@@H](CC(=O)O)C(=O)N[C@H](C)C(=O)N[C@@H](CC(=O)O)C(=O)NCC(=O)N[C@H](CO)C(=O)N[C@@H]([C@H](C)CC(=O)O)C(=O)N[C@@H](CC(=O)c2ccccc2N)C(=O)O[C@@H]1C (some centres unmarked)	Staphylococcus aureus	planktonic bacterial growth, isothermal microcalorimetry	MRSA	2.5 µg/mL, 24 h, 37 °C		peak heat flow	0 µW
C=C[C@]1(C)C[C@@H](OC(=O)CSc2ccc(NC(=O)c3ccco3)cc2)[C@]2(C)[C@H](C)CC[C@]3(CCC(=O)[C@H]32)[C@@H](C)[C@@H]1O	Mycoplasma gallisepticum		infected chickens	intramuscular, 5 to 50 mg/kg		mycoplasma load reduction	< 2 log10 CFU/mL
CC(C)(C)NCC(SS(=O)(=O)O)c1ccccc1 (centres unmarked)	Schistosoma mansoni	perfusion day 52	infected Swiss Webster mice	600 mg/kg single dose, 1248 h, dosed day 7 post-infection	baseline: vehicle control	liver weight decrease	14%
O=Cc1cccc(C(c2c[nH]c(=O)[nH]c2=O)c2c[nH]c(=O)[nH]c2=O)c1	Human immunodeficiency virus 1	viral replication, inhibitor, ELISA		1 µg/mL		inhibition	7%
COC1C=COC2(C)Oc3c(C)c(O)c4c(c3C2=O)C2=NC3(CCN(CC(C)C)CC3)NC2=C(NC(=O)C(C)=CC=CC(C)C(O)C(C)C(O)C(C)C(OC(=O)Nc2cccnn2)C1C)C4=O (centres unmarked)	Mycobacteroides abscessus	bacterial growth	subsp. massiliense 095 clinical isolate	mixed morphotype		IC90	166 nM

Compound	organism	test	system	conditions	how to read	quantity	result
Nc1nc(-c2ccccc2)nc2[nH]nc(Nc3cc(F)c(F)c(F)c3)c12	rhinovirus B42	viral cytopathic effect	HeLa			IC50	240 nM
Cc1ncsc1-c1ccc(CNC(=O)[C@@H]2C[C@@H](O)CN2C(=O)[C@@H](NC(=O)CN2CCN(C3CN(CCNC(=O)C[C@@H]4N=C(c5ccc(Cl)cc5)c5c(sc(C)c5C)-n5c(C)nnc54)C3)CC2)C(C)(C)C)cc1	Spodoptera frugiperda	degrader, targeted LC-MS, measured: BRD3	Sf9	0.01 µM		protein level	28.2% and 30.7% and 51.5% and 44.6%
CC[C@H](C)[C@H](NC(=O)[C@H](Cc1ccc(O)cc1)NC(=O)[C@H](CCC(=O)O)NC(=O)CNC(=O)[C@H](CCC(=O)O)NC(=O)[C@H](CCCCN)NC(=O)[C@H](CCCCN)NC(=O)[C@H](CC(=O)O)NC(=O)[C@H](Cc1c[nH]cn1)NC(=O)[C@H](Cc1c[nH]cn1)NC(=O)[C@H](Cc1c[nH]cn1)NC(=O)[C@H](Cc1c[nH]cn1)NC(=O)[C@H](Cc1c[nH]cn1)NC(=O)[C@H](Cc1c[nH]cn1)NC(=O)[C@H](Cc1c[nH]cn1)NC(=O)[C@H](Cc1c[nH]cn1)NC(=O)[C@H](Cc1c[nH]cn1)NC(=O)[C@@H](N)Cc1c[nH]cn1)C(=O)N[C@@H](CCCCN)C(=O)N[C@@H](CC(C)C)C(=O)N[C@@H](CCCCN)C(=O)N[C@H](C(=O)N[C@H](C(=O)NCC(=O)N[C@@H](CCC(N)=O)C(=O)N[C@@H](CC(=O)O)C(=O)N[C@@H](CO)C(=O)N[C@@H](CO)C(=O)N[C@@H](CCC(=O)O)C(=O)N[C@H](C(=O)N[C@@H](Cc1c[nH]cn1)C(=O)N[C@@H](Cc1ccccc1)C(=O)N[C@@H](CCCCN)C(=O)N[C@H](C(=O)N[C@@H](CCCCN)C(=O)N[C@@H](CCSC)C(=O)N[C@H](C(=O)N[C@H](C(=O)N[C@@H](Cc1c[nH]cn1)C(=O)N[C@@H](CC(C)C)C(=O)N[C@@H](CCCCN)C(=O)N[C@@H](CCCCN)C(=O)N[C@@H](CC(C)C)C(=O)N[C@@H](CCCCN)C(=O)N[C@@H](CCC(=O)O)C(=O)N[C@@H](CO)C(=O)N[C@@H](Cc1ccc(O)cc1)C(=O)N[C@@H](CS)C(=O)N[C@@H](CCC(N)=O)C(=O)N[C@@H](CCCNC(=N)N)C(=O)N[C@@H](CCC(N)=O)C(=O)O)[C@@H](C)O)[C@@H](C)O)C(C)C)[C@@H](C)CC)[C@@H](C)CC)C(C)C	Drosophila melanogaster		α-synuclein A53T transgenic	60 µM, 4 days post eclosion, unit not given	baseline: untreated	climbing mean difference	-14
Cc1ccc(-c2nc(N)c3c(Nc4ccc(F)cc4)n[nH]c3n2)cc1F	coxsackievirus B3	viral cytopathic effect	HeLa			IC50	6530 nM
Cc1cccc2c1N(C(=O)n1ccnn1)CC2	Striga hermonthica		seeds	1 µM, with: 10 nM (±)-GR24		germination rate	83.8% and 93.2% and 85.2% and 67.9% and 84% and 69.6% and 80.6%
Nc1nc(-c2ccccc2)nc2[nH]nc(Nc3cccnc3)c12	rhinovirus B42	viral cytopathic effect	HeLa			IC50	1030 nM
N#Cc1cccc(C(c2c[nH]c(=O)[nH]c2=O)c2c[nH]c(=O)[nH]c2=O)c1	Human immunodeficiency virus 1	viral replication, inhibitor, ELISA		1 µg/mL		inhibition	10%
CC(=O)ON=C1C=CC(=C(C#N)c2ccccc2)C=C1	Candidozyma auris		ATCC MYA-5001	concentration not given		antifungal activity	active
O=c1[nH]cc(C(c2ccc3ccccc3c2)c2c[nH]c(=O)[nH]c2=O)c(=O)[nH]1	Human immunodeficiency virus 1	viral replication, inhibitor, ELISA		1 µg/mL		inhibition	22%
O=C(O)c1cc(O)ccc1O	Streptomyces coelicolor	RT-PCR		2 mM, 1 h		pcaH mRNA level	increased
Cc1ccc(Nc2n[nH]c3nc(-c4ccc(F)cc4)nc(N)c23)cc1	coxsackievirus B3	viral cytopathic effect	HeLa			IC50	31200 nM
C=C(NC(=O)c1csc(-c2nc3c(cc2O)-c2nc(cs2)C(=O)NC(C(C)O)C(=O)NC(=C(C)OC)c2nc(cs2)C(=O)NC2c4nc(cs4)C(=O)NC(COC(=O)c4c5c6c(cccc6n4O)COC(=O)C(OC4CC(C)(O)C(N(C)C)C(C)O4)C2OC5)c2nc-3cs2)n1)C(N)=O (centres unmarked)	Staphylococcus aureus		MRSA, 10 isolates	serum 25%		MIC50	0.0156 µg/mL (≈ 0.0109 µM)
CC[C@H](C)[C@@H]1NC(=O)[C@@H]([C@@H](C)O)NC(=O)CNC(=O)[C@H](CC(=O)O)NC(=O)CNC(=O)[C@H](CC(=O)O)NC(=O)CNC(=O)[C@H]2CCCCN2C(=O)[C@@H](NC(=O)[C@H](CC(=O)O)NC(=O)/C=C/CCCCCCCCCC(C)C)CNC(=O)[C@@H]2CCCN2C1=O	Staphylococcus simulans	broth microdilution	22, Mueller-Hinton broth, Mg2+ 10 mg/L	16 h, 30 °C, with: Ca2+ 2.5 mM		MIC	4 µg/mL (≈ 3.21 µM)
COc1cc(O)c(-c2cc(-c3cc(-c4c(O)cc5c(c4OC)[C@H](C)N[C@H](C)C5)c4cc(C)cc(OC)c4c3O)c(O)c3c(OC)cc(C)cc23)c2c1[C@H](C)N[C@H](C)C2	Plasmodium falciparum	asexual parasite proliferation, SYBR Green I fluorescence	Dd2			IC50	70.1 ± 1.3 nM
Cc1cc(C(=O)Nc2nc3cccc(C)c3n2[C@H]2CCCCN(C(=O)/C=C/CN(C)C)C2)ccn1	Trypanosoma brucei brucei		Lister 427	16.67 µM, 48 h, kill kinetics		proliferation	1.65% and 2.84% and 2.09% and 0.758% and 0.789% and 0.379%
Nc1nc(-c2ccccc2)nc2[nH]nc(Nc3ccc([N+](=O)[O-])cc3)c12	coxsackievirus B3	viral cytopathic effect	HeLa			IC50	6000 nM
CC1=N[C@H](C)Cc2c(-c3ccc(C)cc3)ccc(O)c21	Plasmodium falciparum	asexual parasite proliferation, SYBR Green I fluorescence	Dd2			IC50	653 ± 141 nM
